Published values pooled from the literature.
Numbered parts are unrelated; each lists some results of a single study. Positions count from the first letter of the parent shown.

Study 1 — target: CCNB2, cyclin fold, Cln2 fusion (human); technique: yeast growth competition, sequencing; medium: yeast; notes: weak parent motif; relative to: not given; direction: higher = stronger binding; measurement: normalised enrichment score
Starting sequence: PKN2 docking peptide (human); VSAVQKLDFSDTM; partner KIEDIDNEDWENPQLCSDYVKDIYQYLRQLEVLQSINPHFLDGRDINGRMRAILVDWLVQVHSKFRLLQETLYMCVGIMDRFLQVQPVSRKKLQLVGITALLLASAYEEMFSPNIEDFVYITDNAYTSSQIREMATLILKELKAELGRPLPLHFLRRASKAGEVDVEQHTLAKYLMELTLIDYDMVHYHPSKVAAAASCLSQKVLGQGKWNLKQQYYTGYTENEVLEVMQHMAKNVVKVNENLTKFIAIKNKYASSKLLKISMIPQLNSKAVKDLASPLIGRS
VSAVQKLDFSATM [D11A]: -0.0321
VSAVQKLDLSDTM [F9L]: -0.0856
VSAVQKLDASDTM [F9A]: -0.0464
VSAVQKLRFSDTM [D8R]: -0.035
VFAVQKLDFSDTM [S2F]: -0.0131
VSAVQKRDFSDTM [L7R]: -0.278
VSAVQKLDFSVTM [D11V]: -0.112
VSAVQWLDFSDTM [K6W]: -0.24
VSAVQKLDFLDTM [S10L]: -0.518
KSAVQKLDFSDTM [V1K]: 0.217
VSAVQKLDYSDTM [F9Y]: 0.238
VSAVQKLLFSDTM [D8L]: 0.235
VSAVQKLEFSDTM [D8E]: -0.261
VSAVQQLDFSDTM [K6Q]: 0.102
VSAVQKLDFSSTM [D11S]: -0.0298
VSAVQKLDFSQTM [D11Q]: -0.42
VSAVQKLPFSDTM [D8P]: -0.0863
VTAVQKLDFSDTM [S2T]: 0.308
VSAVQKLDFSPTM [D11P]: 0.0813
VSAVQILDFSDTM [K6I]: -0.533
VSGVQKLDFSDTM [A3G]: -0.459
VSAEQKLDFSDTM [V4E]: -0.169
VSAVQKLDFADTM [S10A]: -0.277
VWAVQKLDFSDTM [S2W]: -0.264
VMAVQKLDFSDTM [S2M]: -0.0632

Study 2 — target: CREB3L2, bZIP domain (human); technique: DHFR protein complementation; medium: yeast; relative to: wild-type JUN-FOS pair; direction: higher = stronger binding; measurement: binding fitness
Notes: single substitutions, most at no-binding floor
Starting sequence: JUN, bZIP domain (human); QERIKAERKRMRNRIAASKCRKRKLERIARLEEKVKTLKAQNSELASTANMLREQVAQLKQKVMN; partner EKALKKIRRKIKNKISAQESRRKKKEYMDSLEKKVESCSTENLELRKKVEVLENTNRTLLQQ
S43M: -1.55 natural log
V56G: -1.49 natural log
V56N: -1.42 natural log
V56L: -1.31 natural log
A46Y: -1.52 natural log
K34H: -1.51 natural log
L52W: -1.43 natural log
A46M: -1.46 natural log
E44S: -1.5 natural log
K39R: -1.42 natural log
A57E: -1.39 natural log
E33N: -1.49 natural log
T48L: -1.41 natural log
E32P: -1.53 natural log
R30K: -1.52 natural log
L52S: -1.49 natural log
S43E: -1.48 natural log
A40H: -1.51 natural log
A46F: -1.4 natural log
L31S: -1.57 natural log
A29M: -1.41 natural log
L38S: -1.54 natural log
E32W: -1.42 natural log

Study 3 — technique: DHFR PCA, deep sequencing; medium: yeast; added: (+)-ABA 710 µM; relative to: wild-type fitted maximum; direction: higher = stronger binding; measurement: relative binding score
Target: ABI1, truncated, D143A, DHFR fusion (Arabidopsis thaliana)
Notes: methotrexate growth selection, single substitutions
Starting sequence: PYL1, truncated, DHFR fusion (Arabidopsis thaliana); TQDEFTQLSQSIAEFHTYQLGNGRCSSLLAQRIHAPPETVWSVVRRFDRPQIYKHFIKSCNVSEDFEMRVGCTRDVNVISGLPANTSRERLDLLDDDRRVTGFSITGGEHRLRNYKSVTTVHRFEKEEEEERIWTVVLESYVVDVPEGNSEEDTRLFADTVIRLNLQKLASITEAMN
Q10D: 106%
S87T: 91.4%
T73K: 96.5%
A170I: 32%
Y141D: -12.1%
D65Y: 96.7%
D75H: 100%
C60F: 33.2%
Q31W: 76.2%
I133P: 109%
S87C: 78.6%
V136K: 50.1%
S80C: 64.9%
D92Q: 86.6%
K116C: 90.6%

Study 4 — technique: RNA Bind-n-Seq; form: RNA; medium: in vitro; concentration: 365 nM; relative to: no-protein control; direction: higher = stronger binding; measurement: RBNS enrichment (R)
Target: RNA binding protein fox-1 homolog 2, RRM domain, GST-SBP tag (RBFOX2, Homo sapiens, UniProt O43251-10, residues 100-194)
Notes: natural RNA segment, single round, ends assumed
Shared flanks, not repeated: GGGAGUUCUACAGUCCGACGAUC … UGGAAUUCUCGGGUGCCAA
Target sequence (chain): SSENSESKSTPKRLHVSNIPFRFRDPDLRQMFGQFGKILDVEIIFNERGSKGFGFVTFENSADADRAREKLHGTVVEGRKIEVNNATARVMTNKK
CAGCUCUGCCCCUGUGGCUUUGUAGGGUACAGCCUCCCUCCUGGCUGCUUUCACGGCUGUUGUUCAGUGCCUGCGGCUUUUCCAGGUGCACGGUGCAAGCUGUUGGUGGA: 0.334
UUUGCAUUAGUACUGAAAUCUGUACCCUACAGACCUUAUAAUAAUUUGCAAAGUGACUCUGACUAACGCGGUUAAGAACAUCUGAACUUGGUUUCCCAAAUGACUCAGUU: 0.24
UUACACGUCCCCUGGGUGGACCUCCCUGCUGCAGGCACCAUACCUGCGAUGGUGUACAGGGCUGUGAUGCCGAGCGUGAGGAUGGUGGAGAGGUAGAAGUUCCAGCCCAG: 0.865
CUGAGGUGCAAAGAAUGCACUUUUCCCUAUGGGGCCCAGAGUUUGCCUUUUCUGCCAGGCAGUCACCAUGCUUCCCUACCCCAGCCUGUUUCUUUUGGCUUGGUUUGGAC: 0.914
GAACUUGGCCCUCUCCUUUCUUCCUGUUAAGUCUGAGAGGGAAGAGCUAGGCUAUGAAGGGAAGAUGUGGCCGUACGUGGGAAUAACCAGUGUCCCACGCUCAUUUUCCC: 1.14
UCUGUAGAGCUGCCUGCCAAGCCACCUGAAACACAGUGGCUCCCUGUGACACUCAGGCCUCAGAUGAGCCUCGCUUGCCUUCACUGCUUCUGUUUUAAACAGUAGUAAAA: 0.249
AGUGUCAGGACUUUGCAGUGUAGCUCAUGCAAAGAGAGUGUUCUAUAAAAAUCUUGACAGCUGAACUCAGUUGCUCUUUCCUGGCAGGAGGUGGGGGUGGGAUCUAACAU: 0.658
UUCCAAAUGAGAUUUAGAUUUGUUUUUCUCAUGCAUAAAUGAUUUUAAUUCAGUUUUAACCAGUGAAAACUCGUGGUUUUUCUGAAAGAAAAAAGAAAAGGGUUUCCUAU: 1.12

Excerpt of the above (study 1):
VTAVQKLDFSDTM [S2T]: 0.308
VSAVQKRDFSDTM [L7R]: -0.278
VSAVQILDFSDTM [K6I]: -0.533
VSAVQKLDFADTM [S10A]: -0.277
